Measurements pooled from the literature.
Every numbered part comes from another study and shows a few of its results, in no order.

Series 1
Target: PABPC1L2, full length, GST fusion (mouse, UniProt A0ABA7IW68)
Technique: RNAcompete
Form: RNA
Matrix: in vitro
Concentration: 20 nM
Setting: 7-mer, probes averaged, single round
Baseline: mean of 7-mers
Direction: higher = stronger binding
Residues (chain): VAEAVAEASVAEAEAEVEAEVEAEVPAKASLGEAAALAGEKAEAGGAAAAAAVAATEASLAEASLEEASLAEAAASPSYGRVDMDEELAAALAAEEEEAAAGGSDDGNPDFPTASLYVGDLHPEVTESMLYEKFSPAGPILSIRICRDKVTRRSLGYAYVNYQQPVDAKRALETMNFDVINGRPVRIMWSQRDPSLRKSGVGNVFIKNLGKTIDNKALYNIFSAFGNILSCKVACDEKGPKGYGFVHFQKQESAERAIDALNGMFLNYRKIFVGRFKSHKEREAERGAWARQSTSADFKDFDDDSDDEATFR
Strand | 7-mer Z-score
ACAAACC | 0.305
GCGCACC | -0.115
CCCAUGU | -0.365
AUAGGUC | -0.11
GGACACA | 0.265
GGUCCCA | -0.258
ACACGCG | -0.0699
UCGAAGG | -0.0899

Series 2
Target: RNA binding protein fox-1 homolog 2, RRM domain, GST-SBP tag (RBFOX2, Homo sapiens, UniProt O43251-10, residues 100-194)
Technique: RNA Bind-n-Seq
Form: RNA
Matrix: in vitro
Concentration: 365 nM
Setting: natural RNA segment, single round, ends assumed
Baseline: no-protein control
Direction: higher = stronger binding
Shared flanks, not repeated: GGGAGUUCUACAGUCCGACGAUC … UGGAAUUCUCGGGUGCCAA
Residues (chain): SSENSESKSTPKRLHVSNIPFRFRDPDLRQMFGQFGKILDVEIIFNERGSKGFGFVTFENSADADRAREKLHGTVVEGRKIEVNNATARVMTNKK
Strand | RBNS enrichment (R)
CUUCACCACUGUAGAUCCCAUGCAUGGAUCUAUGUAGUAUGCUCUGACUCUAAUAGGACUGUAUAUACUGUUUUAAGAAUGGGCUGAAAUCAGAAUGCCUGUUUGUGGUU | 10.1
AUUGAAAUUGUGUUGAAUUGUAUGCUUUUUCACUUUUGAUAAAUAAACAUGUAAAAAUGUUUCAAAAAAAUAAUAAAAUAAAUAAAUACGAAGAAUAUGUCAGGACAGUC | 1.19
UUUGAGGCCCCAGGUGAAGCGGGGCCCUACUCCGGCCUCUGCCUUGGGCCUCGCCUCUGUCCUCAGGUCCUCUCAGAGGCAGAUACCUAGGGGAGCUGCUGCUGCCUGCU | 0.354
UGAUUAGAAGCACAGAAUGAUCAGGCCUUUAGAGCGAUGGAAUGGCCAUUGUCAUAGCACAGAGAUUUCAGAAGCACCUGCAGGUGGCUUGCUUGGGAUGUUGCUGUCCC | 2.43
UUUAAAGAUGCCCUAAGUGUUGAAGAAGAGUUUGCAAAUGCAACAAAAUAUUUAAUUACCGGUUGUUAAAACUGGUUUAGCACAAUUUAUAUUUUCCCUCUCUUGCCUUU | 1.25
UUUUCAGUGAUCAGAAGCAGCAGUUAUUUGAGUGUAUGAAUGGAAUGAUGAUCACUGUGCUAUAAUGUACUGAAACCACCAUAUUACAGAAAUAUUUACUACAUAUUUUC | 7.41
CCAAGGAAUACUAUAUAAAGUAAUGAGACUGGUUUAAAGUAACAUGCCAGAACUUACGCAUCCAAUGUGGGUUGUCACUUGUUAUUCCCAAGUACUAUUAUUCCAUACUA | 0.44
GCGAUGCCACGCUUUGCUGCUACCGCCCUGGGCUGGACUGGAGGUGGGCAUGCCACCCUCACACACACAGCUGGGCAAAGCCACAAGGCUGGCCAGCAAGGCAGGUUGGA | 0.516

Series 3
Target: Sal-like protein 4, full length isoform A (SALL4, Homo sapiens, UniProt Q9UJQ4, residues 1-1053)
UniProt Q9UJQ4, sequence (whole entry, looked up): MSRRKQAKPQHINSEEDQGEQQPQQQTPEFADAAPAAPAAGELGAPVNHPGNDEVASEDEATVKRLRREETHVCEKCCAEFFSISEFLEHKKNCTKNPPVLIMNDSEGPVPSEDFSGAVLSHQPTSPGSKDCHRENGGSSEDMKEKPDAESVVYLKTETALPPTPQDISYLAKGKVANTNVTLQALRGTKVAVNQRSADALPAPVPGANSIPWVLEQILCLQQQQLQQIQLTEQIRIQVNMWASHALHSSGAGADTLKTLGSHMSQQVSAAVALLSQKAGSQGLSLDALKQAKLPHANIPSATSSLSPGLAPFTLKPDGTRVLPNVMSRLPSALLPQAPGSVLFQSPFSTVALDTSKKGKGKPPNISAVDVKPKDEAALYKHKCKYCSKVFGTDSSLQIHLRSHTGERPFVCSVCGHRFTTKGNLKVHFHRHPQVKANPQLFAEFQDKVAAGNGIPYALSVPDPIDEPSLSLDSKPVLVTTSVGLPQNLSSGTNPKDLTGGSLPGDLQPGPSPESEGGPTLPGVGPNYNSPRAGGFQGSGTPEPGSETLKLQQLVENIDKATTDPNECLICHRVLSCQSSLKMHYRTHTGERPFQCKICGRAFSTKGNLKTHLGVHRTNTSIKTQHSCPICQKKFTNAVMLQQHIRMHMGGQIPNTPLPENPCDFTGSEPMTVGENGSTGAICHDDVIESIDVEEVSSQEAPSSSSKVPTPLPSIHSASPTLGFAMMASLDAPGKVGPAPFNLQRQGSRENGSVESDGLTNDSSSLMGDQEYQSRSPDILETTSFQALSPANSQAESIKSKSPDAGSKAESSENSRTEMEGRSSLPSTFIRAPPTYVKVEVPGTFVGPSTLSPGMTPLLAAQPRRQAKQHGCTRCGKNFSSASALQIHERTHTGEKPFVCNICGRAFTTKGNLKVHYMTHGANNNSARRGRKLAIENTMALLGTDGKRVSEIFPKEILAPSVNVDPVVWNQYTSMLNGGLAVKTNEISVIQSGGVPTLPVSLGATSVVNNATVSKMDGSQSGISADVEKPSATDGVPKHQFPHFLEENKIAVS
Technique: universal PBM
Form: double-stranded DNA, one strand shown
Matrix: in vitro
Concentration: 600 nM
Setting: 8-mer, flanks averaged, mean of replicates
Direction: higher = stronger binding
Strand | E-score
GCCCGGAC | -0.36
CTCGCATA | 0.0346
CAGCAGGC | -0.192
AACCTGTG | -0.0924
CGTTCAGA | -0.128
ATCTTCTC | 0.0192
CTTTTATC | 0.12
ATAGAAAC | 0.275

Further values, each from its own experiment
Structure (SMILES) | cell line | concentration | time | endpoint | result
COc1cc2ccc(=O)oc2c(O)c1O | A-375 | 100 µM | 36 h | viability | 98.7%

Excerpt of the above (series 3):
Strand | E-score
CTCGCATA | 0.0346
CAGCAGGC | -0.192
AACCTGTG | -0.0924
